Experimental data from different studies.
± marks the error that the study gave.
Organism: Escherichia coli

The MIC of `COc1ccc2ccc3c(c2c1)C=[N+]1C2CCCCC2[N+]2=Cc4ccc(-c5ccccc5)cc4[O][Au-]21[O]3.F[P-](F)(F)(F)(F)F` (centres unmarked) is reported as greater than 20 µM (bacterial growth, broth microdilution; carbapenem-resistant clinical isolate; 24 h).
For `CCn1cc(/C=C/c2ccc3ccccc3[n+]2CC)c2ccccc21`, the MIC was 4 ± 0.005 µg/mL (780, Mueller-Hinton broth).
The MIC of `CC(C)=CCc1cc([C@@H]2CC(=O)c3c(O)cc(O)c(CC=C(C)C)c3O2)cc(CC=C(C)C)c1O` is reported as 128 µg/mL (TISTR 780).
The MIC of `C/C(=N\NC1=NC(=O)CS1)c1ccc2c(c1)sc1nc(=O)c(C#N)cn12` is reported as less than 33 µg/mL (microbial growth, broth dilution).
`CCN(CC)CCCN1/C(=C/c2cc(C)[n+](C)c3ccccc23)Sc2ccccc21` gave an MIC of 2 µg/mL (microbial growth, broth dilution; ATCC25922).
For `O=C1OCC(SCc2ccccc2)N1/N=C/c1ccc([N+](=O)[O-])o1` (centres unmarked), the MIC was greater than 50 µg/mL (microbial growth, broth dilution; ATCC25922; 18 h).
`O=C1c2ccccc2C(=O)c2c1ccc1c2C(C(=O)Nc2ccc(Br)cc2)C(=O)C1c1ccccc1` (centres unmarked) gave an MIC of greater than 100 µg/mL (microbial growth).
For `N=C(N)NCCC[C@H](NC(=O)[C@H](Cc1c[nH]c2ccccc12)NC(=O)[C@H](CCC(N)=O)NC(=O)[C@H](Cc1c[nH]c2ccccc12)NC(=O)[C@H](CCCNC(=N)N)NC(=O)[C@@H](N)CCCNC(=N)N)C(=O)NCCCC[C@H](NC(=O)[C@H](CCCNC(=N)N)NC(=O)[C@H](Cc1c[nH]c2ccccc12)NC(=O)[C@H](CCC(N)=O)NC(=O)[C@H](Cc1c[nH]c2ccccc12)NC(=O)[C@H](CCCNC(=N)N)NC(=O)[C@@H](N)CCCNC(=N)N)C(=O)NCCCCCC(N)=O`, the MIC was 11 µM (broth microdilution; ATCC 43827; 24 h, 37 °C).
The MIC of `CO[C@H]1[C@H](O)[C@@H](N)[C@@H](O[C@H]2[C@H](O[C@@H]3O[C@H](CO)[C@@H](O[C@H]4O[C@@H](CN)[C@@H](O)[C@H](O)[C@H]4N)[C@H]3O)[C@@H](O)[C@H](N)C[C@@H]2N)O[C@@H]1CO` is reported as greater than 128 µg/mL (broth microdilution; clinical isolate AG 001).
With `COc1ccc2c(c1)C=[N+]1C3CCCCC3[N+]3=Cc4c(ccc5ccc(OC)cc45)[O][Au-]13[O]2.F[P-](F)(F)(F)(F)F` (centres unmarked) the MIC was greater than 20 µM (bacterial growth, broth microdilution; carbapenem-resistant; 24 h).
With `Cc1cc(=O)nc(NC(=O)NCCCCCCNC(=O)NCCCCCCNC(=O)OCCOCCOCCOCCOCCOCCOCC(=O)N[C@@H](CC(C)C)C(=O)N[C@@H](CCCCN)C(=O)N[C@@H](CC(C)C)C(=O)N[C@@H](CC(C)C)C(=O)N[C@@H](CCCCN)C(=O)N[C@@H](CCCCN)C(=O)N[C@@H](CC(C)C)C(=O)N[C@@H](CC(C)C)C(=O)N[C@@H](CCCCN)C(=O)N[C@@H](CCCCN)C(=O)N[C@@H](CC(C)C)C(=O)N[C@@H](CC(C)C)C(=O)N[C@@H](CCCCN)C(=O)N[C@@H](CC(C)C)C(=O)N[C@@H](CC(C)C)C(N)=O)[nH]1` the MIC was 1.9 to 3.7 µM (ATCC 8937, RPMI medium; 24 h, 37 °C).
For `CCCCCCN1C(=O)/C(=N\NC(=N)N)c2cc(C)ccc21`, the MIC was 24 µg/mL (microbial growth, broth dilution; 18 h).
`C[n+]1ccn(CC([O-])c2ccccc2)[c]1[Ag-][I].[Na+]` (centres unmarked) gave an MIC of 5 µg/mL (broth dilution; ATCC 25922; 18 h, 37 °C).
With `COCO[C@H]1[C@H](O)[C@@H](N)[C@@H](O[C@H]2[C@H](O[C@@H]3O[C@H](CO)[C@@H](O[C@H]4O[C@@H](CN)[C@@H](O)[C@H](O)[C@H]4N)[C@H]3O)[C@@H](O)[C@H](N)C[C@@H]2N)O[C@@H]1CO` the MIC was 64 to 128 µg/mL (broth microdilution; clinical isolate AG 003).
For `O=C1NC(=O)N(/N=C/c2ccc([N+](=O)[O-])o2)C1O` (centres unmarked), the MIC was 50 µg/mL (microbial growth, broth dilution; ATCC25922; 18 h).
With `CC(CCCOC(=O)CCC[N+](C)(C)C)C1CCC2C3CCC4CC(OC(=O)CCC[N+](C)(C)C)CCC4(C)C3CC(OC(=O)CCC[N+](C)(C)C)C12C` (centres unmarked) the MIC was 15.6 µg/mL (microbial growth, broth dilution; ATCC25922; 16 h).
With `NC[C@@H]1O[C@H](O[C@H]2[C@@H](O)[C@H](O[C@@H]3[C@@H](O)[C@H](N)C[C@H](N)[C@H]3O[C@H]3O[C@H](CO)[C@@H](OCC(O)CO)[C@H](O)[C@H]3N)O[C@@H]2CO)[C@H](N)[C@@H](O)[C@@H]1O` (some centres unmarked) the MIC was 16 to 32 µg/mL (broth microdilution; clinical isolate AG 002).
For `CCCCCCCCCCCCCCN1C(=O)/C(=N\NC(=N)N)c2cc(C)ccc21`, the MIC was greater than 192 µg/mL (microbial growth, broth dilution; 18 h).
With `NC[C@@H]1O[C@H](O[C@H]2[C@@H](O)[C@H](O[C@@H]3[C@@H](O)[C@H](N)C[C@H](N)[C@H]3O[C@H]3O[C@H](CO)[C@@H](OCCO)[C@H](O)[C@H]3N)O[C@@H]2CO)[C@H](N)[C@@H](O)[C@@H]1O` the MIC was 32 to 64 µg/mL (broth microdilution; clinical isolate AG 055).
`CN[C@@H]1[C@H](O)[C@H](NC)[C@H]2O[C@]3(O)[C@H](O[C@@H]2[C@H]1O)O[C@H](C)C[C@@]3(O)CNCCc1ccc(F)cc1` has an MIC of 12.5 µg/mL (microbial growth; K12).
For `CO[C@@H](C(N)=O)[C@H](NC(=O)c1ccc(NC(=O)c2ccc([N+](=O)[O-])cc2)cc1)C(=O)Nc1ccc(C(=O)Nc2ccc(C(=O)Nc3ccc(C(=O)O)cc3)c(O)c2OC(C)C)cc1`, the MIC was 0.125 µg/mL (microbial growth; DSM1116).
For `C[C@@H](O)[C@H]1C(=O)N2C(C(=O)O)=C(S[C@@H]3CN[C@H](C(=O)N(C)C)C3)[C@H](C)[C@H]12`, the MIC was 3.12 µM (microbial growth, broth dilution; ATCC25922).
`CN1CCC(NCCC2(Cc3ccc(Cl)cc3)CCCCC2)CC1` has an MIC of 50 µM (TOP10F′; 10 h).
`Oc1c(Cl)cc(Cl)c2cccnc12` has an MIC of 37.4 µM (microbial growth, agar dilution; ATCC25922).
`CC1OCC2OC(OC3C(N)CC(N)C(O)C3OC3OC(CO)C(OC4OC(CN)C(O)C(O)C4N)C3O)C(N)C(O)C2O1` (centres unmarked) has an MIC of greater than 128 µg/mL (broth microdilution; clinical isolate AG 001).
`c1ccc(CN2CCOCCOCCN(CCCCCCCCCCN3CCOCCOCCN(CCCCCCCCCCN4CCOCCOCCN(Cc5ccccc5)CCOCCOCC4)CCOCCOCC3)CCOCCOCC2)cc1` gave an MIC of 13 µM (microbial growth).
`[N-]=[N+]=NC1COC(=O)N1/N=C/c1ccc([N+](=O)[O-])o1` (centres unmarked) gave an MIC of 1.56 µg/mL (microbial growth, broth dilution; ATCC25922; 18 h).
For `CCn1[c]([Au-][Cl])[n+](CC)c2ccc(C(=O)OC)cc21`, the MIC was greater than 30 µM (broth dilution; DSM 1116; 20 h, 37 °C).
`COc1ccc2ccc3c(c2c1)C=[N+]1C2CCCCC2[N+]2=Cc4cccc(F)c4[O][Au-]21[O]3.F[P-](F)(F)(F)(F)F` (centres unmarked) has an MIC of 20 µM (bacterial growth, broth microdilution; carbapenem-resistant; 24 h).
The MIC of `O=C(NCCNCCO)c1cn(Cc2ccccc2)c2c(Cl)c(OCc3ccc(C(F)(F)F)cc3)c(Cl)cc2c1=O` is reported as greater than 32 µg/mL (ATCC 25922; ≥80% growth inhibition).
The MIC of `C/C(=N/NC(=N)N)c1nnn(-c2ccc(C#CC(C)(C)C)cc2)c1C` is reported as greater than 64 µg/mL (microbial growth, broth dilution; BW25113).
With `CCCCc1ccc(N2C(=O)/C(=N\NC(=N)N)c3cc(C)ccc32)cc1` the MIC was 12 µg/mL (microbial growth, broth dilution; 18 h).
`COc1ccc2ccc3c(c2c1)C=[N+]1C2CCCCC2[N+]2=Cc4ccccc4[O][Au-]21[O]3.F[P-](F)(F)(F)(F)F` (centres unmarked) has an MIC of greater than 20 µM (bacterial growth, broth microdilution; carbapenem-resistant; 24 h).
For `CN1/C(=C/C=C/c2cc(-c3ccccc3)cc(-c3ccccc3)[o+]2)C(C)(C)c2ccccc21`, the MIC was 8 µg/mL (microbial growth, broth dilution; ATCC25922).
`Cc1cc(O)cc2c1C(=O)c1c(cc3oc(=O)cc(-c4ccc(Cl)cc4)c3c1O)C2=O` gave an MIC of 8 µg/mL (microbial growth).
With `C/C(=N\Nc1nc(-c2ccccc2)cs1)c1ccc2c(c1)sc1nc(=O)c(C#N)cn12` the MIC was less than 36 µg/mL (broth microdilution).
The MIC of `NCC1OC(OC2C(N)CC(N)C(OC3OC(CO)C(O)C(N)C3O)C2OCCCCCCCCCCCCn2cc(CNc3nc(NCc4cn(CCCCCCCCCCCCOC5C(OC6OC(CN)C(O)CC6N)C(N)CC(N)C5OC5OC(CO)C(O)C(N)C5O)nn4)nc(NCc4cn(CCCCCCCCCCCCOC5C(OC6OC(CN)C(O)CC6N)C(N)CC(N)C5OC5OC(CO)C(O)C(N)C5O)nn4)n3)nn2)C(N)CC1O` (centres unmarked) is reported as 128 µg/mL (microbial growth, broth dilution; ATCC25922).
`COc1ccc2ccc3c(c2c1)C=[N+]1C2CCCCC2[N+]2=Cc4cc(C(C)(C)C)ccc4[O][Au-]21[O]3.F[P-](F)(F)(F)(F)F` (centres unmarked) gave an MIC of greater than 20 µM (bacterial growth, broth microdilution; carbapenem-resistant clinical isolate; 24 h).

Some of these lines once more:
`[N-]=[N+]=NC1COC(=O)N1/N=C/c1ccc([N+](=O)[O-])o1` (centres unmarked) gave an MIC of 1.56 µg/mL (microbial growth, broth dilution; ATCC25922; 18 h).
For `CCn1[c]([Au-][Cl])[n+](CC)c2ccc(C(=O)OC)cc21`, the MIC was greater than 30 µM (broth dilution; DSM 1116; 20 h, 37 °C).
`COc1ccc2ccc3c(c2c1)C=[N+]1C2CCCCC2[N+]2=Cc4cccc(F)c4[O][Au-]21[O]3.F[P-](F)(F)(F)(F)F` (centres unmarked) has an MIC of 20 µM (bacterial growth, broth microdilution; carbapenem-resistant; 24 h).
